Assay results from different studies.
Parts stem from different laboratories: compare values within a part only.
Chain of UniProt P10721 (whole entry, unmodified, looked up): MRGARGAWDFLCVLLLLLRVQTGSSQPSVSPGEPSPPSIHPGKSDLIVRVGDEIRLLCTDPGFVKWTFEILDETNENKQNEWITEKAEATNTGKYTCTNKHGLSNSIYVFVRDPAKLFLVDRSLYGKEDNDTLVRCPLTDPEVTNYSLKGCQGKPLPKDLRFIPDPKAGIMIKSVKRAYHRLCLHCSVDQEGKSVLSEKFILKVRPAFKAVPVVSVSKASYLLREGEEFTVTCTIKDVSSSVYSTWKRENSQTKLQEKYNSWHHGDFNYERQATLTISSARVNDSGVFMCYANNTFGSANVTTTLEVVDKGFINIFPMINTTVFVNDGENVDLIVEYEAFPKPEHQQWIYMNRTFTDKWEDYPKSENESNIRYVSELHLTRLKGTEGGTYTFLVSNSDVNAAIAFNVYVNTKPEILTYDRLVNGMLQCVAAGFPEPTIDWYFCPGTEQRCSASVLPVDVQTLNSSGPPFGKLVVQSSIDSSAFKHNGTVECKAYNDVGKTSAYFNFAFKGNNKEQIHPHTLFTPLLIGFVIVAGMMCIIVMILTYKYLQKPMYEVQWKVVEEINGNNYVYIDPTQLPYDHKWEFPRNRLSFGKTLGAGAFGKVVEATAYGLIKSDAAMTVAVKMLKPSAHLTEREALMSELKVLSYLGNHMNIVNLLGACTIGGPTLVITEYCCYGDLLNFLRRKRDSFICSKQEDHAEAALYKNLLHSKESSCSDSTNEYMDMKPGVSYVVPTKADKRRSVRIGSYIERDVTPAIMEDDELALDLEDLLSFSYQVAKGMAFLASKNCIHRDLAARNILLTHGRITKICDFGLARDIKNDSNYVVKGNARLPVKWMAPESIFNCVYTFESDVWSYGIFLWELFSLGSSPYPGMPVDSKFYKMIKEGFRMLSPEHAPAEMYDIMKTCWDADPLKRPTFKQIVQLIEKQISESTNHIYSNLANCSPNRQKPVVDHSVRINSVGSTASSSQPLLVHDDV
Chain of UniProt Q8NEB9 (whole entry, looked up): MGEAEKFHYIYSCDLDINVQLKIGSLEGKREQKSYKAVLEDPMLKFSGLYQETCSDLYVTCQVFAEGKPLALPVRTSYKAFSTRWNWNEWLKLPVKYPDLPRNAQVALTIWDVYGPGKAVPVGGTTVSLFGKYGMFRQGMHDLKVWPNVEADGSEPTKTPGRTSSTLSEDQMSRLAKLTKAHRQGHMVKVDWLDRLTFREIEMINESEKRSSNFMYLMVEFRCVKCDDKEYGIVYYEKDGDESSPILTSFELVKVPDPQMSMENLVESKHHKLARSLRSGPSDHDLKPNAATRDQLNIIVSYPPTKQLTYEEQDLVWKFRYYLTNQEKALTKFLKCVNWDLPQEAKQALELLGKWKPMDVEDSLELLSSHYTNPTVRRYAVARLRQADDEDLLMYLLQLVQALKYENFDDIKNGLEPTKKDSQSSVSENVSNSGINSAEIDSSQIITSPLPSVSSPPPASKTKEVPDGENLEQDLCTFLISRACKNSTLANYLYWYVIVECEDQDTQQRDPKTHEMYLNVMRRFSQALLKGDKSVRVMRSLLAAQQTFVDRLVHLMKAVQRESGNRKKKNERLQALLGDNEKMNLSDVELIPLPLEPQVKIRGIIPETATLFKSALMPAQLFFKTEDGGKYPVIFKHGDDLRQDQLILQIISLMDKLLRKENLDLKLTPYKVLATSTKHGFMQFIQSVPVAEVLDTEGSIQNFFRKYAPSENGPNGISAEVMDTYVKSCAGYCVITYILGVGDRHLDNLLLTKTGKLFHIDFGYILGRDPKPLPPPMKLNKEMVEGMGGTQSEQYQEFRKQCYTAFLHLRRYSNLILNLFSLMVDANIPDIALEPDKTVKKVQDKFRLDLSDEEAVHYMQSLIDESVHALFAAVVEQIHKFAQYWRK
Chain of UniProt P48730 (whole entry, looked up): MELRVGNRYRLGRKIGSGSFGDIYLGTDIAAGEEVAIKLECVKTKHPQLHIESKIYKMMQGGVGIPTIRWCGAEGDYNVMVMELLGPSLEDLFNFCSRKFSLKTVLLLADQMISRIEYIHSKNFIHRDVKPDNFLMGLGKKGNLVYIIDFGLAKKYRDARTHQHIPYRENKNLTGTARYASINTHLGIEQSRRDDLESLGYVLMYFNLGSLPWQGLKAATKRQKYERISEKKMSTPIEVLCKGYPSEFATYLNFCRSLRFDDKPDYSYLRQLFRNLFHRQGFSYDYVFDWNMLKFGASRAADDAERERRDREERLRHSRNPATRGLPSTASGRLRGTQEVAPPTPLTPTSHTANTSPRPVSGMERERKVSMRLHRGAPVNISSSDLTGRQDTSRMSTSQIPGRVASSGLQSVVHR
Chain of UniProt Q9UPZ9 (whole entry, looked up): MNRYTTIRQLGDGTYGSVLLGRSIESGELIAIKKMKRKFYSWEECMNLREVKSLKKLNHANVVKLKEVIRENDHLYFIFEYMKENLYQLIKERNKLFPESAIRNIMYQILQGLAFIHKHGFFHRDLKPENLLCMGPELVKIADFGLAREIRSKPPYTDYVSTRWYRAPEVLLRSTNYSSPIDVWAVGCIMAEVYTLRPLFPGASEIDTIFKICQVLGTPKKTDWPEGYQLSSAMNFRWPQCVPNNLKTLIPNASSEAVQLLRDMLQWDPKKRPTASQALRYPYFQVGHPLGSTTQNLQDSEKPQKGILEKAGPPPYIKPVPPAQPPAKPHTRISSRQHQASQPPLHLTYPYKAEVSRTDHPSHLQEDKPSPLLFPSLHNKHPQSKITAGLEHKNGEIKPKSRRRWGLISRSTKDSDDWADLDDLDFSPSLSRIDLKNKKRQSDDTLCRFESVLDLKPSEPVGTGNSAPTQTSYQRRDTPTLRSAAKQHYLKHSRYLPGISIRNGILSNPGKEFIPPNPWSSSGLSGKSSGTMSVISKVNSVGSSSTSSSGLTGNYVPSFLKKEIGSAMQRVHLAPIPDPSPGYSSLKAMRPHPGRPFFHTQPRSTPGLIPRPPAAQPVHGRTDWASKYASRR
Chain of UniProt P11802 (whole entry, looked up): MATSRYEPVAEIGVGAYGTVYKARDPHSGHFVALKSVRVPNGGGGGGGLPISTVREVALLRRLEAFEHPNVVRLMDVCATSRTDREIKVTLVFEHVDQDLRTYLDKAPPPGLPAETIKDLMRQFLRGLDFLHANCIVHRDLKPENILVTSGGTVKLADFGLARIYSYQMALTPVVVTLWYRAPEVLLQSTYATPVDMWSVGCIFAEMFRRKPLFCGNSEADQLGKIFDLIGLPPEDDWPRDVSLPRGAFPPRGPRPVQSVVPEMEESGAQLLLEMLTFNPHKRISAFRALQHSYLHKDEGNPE
Chain of UniProt Q9H2K8 (whole entry, looked up): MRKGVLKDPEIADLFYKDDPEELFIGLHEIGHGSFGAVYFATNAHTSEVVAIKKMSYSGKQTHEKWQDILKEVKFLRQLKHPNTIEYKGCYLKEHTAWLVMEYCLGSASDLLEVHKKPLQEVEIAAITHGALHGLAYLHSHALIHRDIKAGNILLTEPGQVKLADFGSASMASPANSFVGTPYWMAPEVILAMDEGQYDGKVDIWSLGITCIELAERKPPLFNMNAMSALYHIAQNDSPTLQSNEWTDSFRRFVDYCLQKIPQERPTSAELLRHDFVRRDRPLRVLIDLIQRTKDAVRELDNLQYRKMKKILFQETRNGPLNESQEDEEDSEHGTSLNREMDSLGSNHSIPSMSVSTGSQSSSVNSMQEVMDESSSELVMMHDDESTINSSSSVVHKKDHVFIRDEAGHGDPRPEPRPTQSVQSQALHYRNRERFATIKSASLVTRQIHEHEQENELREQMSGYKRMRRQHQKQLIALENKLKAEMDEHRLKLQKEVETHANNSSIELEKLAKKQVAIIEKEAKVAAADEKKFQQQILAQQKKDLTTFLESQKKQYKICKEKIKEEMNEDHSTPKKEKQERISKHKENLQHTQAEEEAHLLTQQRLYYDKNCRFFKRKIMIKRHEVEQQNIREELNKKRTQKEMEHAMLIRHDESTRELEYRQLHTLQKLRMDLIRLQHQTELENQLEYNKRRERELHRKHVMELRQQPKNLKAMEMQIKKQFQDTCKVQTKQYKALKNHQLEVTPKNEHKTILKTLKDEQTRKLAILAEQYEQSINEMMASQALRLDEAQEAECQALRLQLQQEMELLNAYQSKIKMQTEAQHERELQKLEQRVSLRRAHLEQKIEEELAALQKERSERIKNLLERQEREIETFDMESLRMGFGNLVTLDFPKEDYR

Block 1
Target: Histone acetyltransferase KAT6A, winged helix 1, GST fusion (KAT6A, Homo sapiens, UniProt Q92794, residues 1-85)
Technique: protein binding microarray
Form: double-stranded DNA, one strand shown
Medium: in vitro
Concentration: not given
Setting: 8-mer, flanks averaged, mean of 2 arrays, mostly near background
Relative to: not given
Reading: higher = stronger binding
Residues (chain): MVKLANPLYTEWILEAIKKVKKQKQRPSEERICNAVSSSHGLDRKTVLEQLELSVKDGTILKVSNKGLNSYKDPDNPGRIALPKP
For `ATCCTGGC`, the E-score was -0.139.
`TCCTCCCA` has an E-score of -0.113.
With `CGGATATC` the E-score was 0.081.
`AACGTCAG` has an E-score of -0.245.
With `ACCCGATG` the E-score was 0.261.
The E-score of `GGCTGCAC` is reported as -0.00308.
`ACGTAGGA` has an E-score of -0.159.
`CACATCCA` has an E-score of -0.094.

Block 2
Target: Phosphate system positive regulatory protein PHO4, full length, GST-tagged (PHO4, Saccharomyces cerevisiae, UniProt P07270, residues 1-312)
Technique: competition protein-binding microarray
Form: double-stranded DNA, one strand shown
Medium: in vitro
Concentration: 2 µM
Setting: whole 60-bp probe, lowest competitor level
Added: Cbf1 competitor, 0.05 µM
Reading: higher = stronger binding
Residues (chain): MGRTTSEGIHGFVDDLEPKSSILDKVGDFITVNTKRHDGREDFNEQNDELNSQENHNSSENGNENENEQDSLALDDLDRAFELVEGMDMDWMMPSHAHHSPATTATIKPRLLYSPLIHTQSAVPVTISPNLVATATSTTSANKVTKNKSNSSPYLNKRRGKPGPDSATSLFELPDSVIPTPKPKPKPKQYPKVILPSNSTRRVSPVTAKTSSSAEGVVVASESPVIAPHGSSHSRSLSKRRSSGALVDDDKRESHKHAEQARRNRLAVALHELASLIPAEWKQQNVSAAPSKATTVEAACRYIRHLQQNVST
`CATACCCAACCTTGCCCTGTGGGTGAAGATATTTGTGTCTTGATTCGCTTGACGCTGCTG` has a fluorescence intensity of 4790 a.u.
`CTTCTGTAAATTTGTTCTGTGGGTGGACGCGCCCCGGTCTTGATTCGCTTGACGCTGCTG` has a fluorescence intensity of 4050 a.u.
With `AAAGCGGTAATTTGACAAGTGGGTGCAGATATCTATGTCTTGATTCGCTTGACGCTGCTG` the fluorescence intensity was 3810 a.u.
For `CCTCATGGAGATGAGCACATGCTACAACTAATAACGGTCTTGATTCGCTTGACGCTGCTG`, the fluorescence intensity was 12200 a.u.
With `CGTCCTAGCGATTAACACGTGTTTTCCATGAGGAAGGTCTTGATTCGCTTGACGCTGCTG` the fluorescence intensity was 18300 a.u.
The fluorescence intensity of `AGATTCGAATTACCATCCGTGACGGACATCTTATTTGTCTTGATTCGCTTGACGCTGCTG` is reported as 3470 a.u.
`CGCGTTTCTTTGTTCCACGTGCTAAGCGCCTCTCTTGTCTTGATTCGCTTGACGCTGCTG` has a fluorescence intensity of 17800 a.u.
The fluorescence intensity of `CACCATTTGATGTTGCACATGCGTTCGATATACCCCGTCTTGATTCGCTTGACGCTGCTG` is reported as 11000 a.u.

Block 3
Compound: N#CC1(c2ccccn2)CCN(Cc2cc(C(=O)N3CCCC3)c(=O)n3ccccc23)CC1
Observed: cell-free assay
Technique: competition with immobilised ligand
Concentration: 1 µM
Serine/threonine-protein kinase ICK (CILK1, Homo sapiens, UniProt Q9UPZ9) — remaining binding: 100%.
For Phosphatidylinositol 3-kinase catalytic subunit type 3 (PIK3C3, Homo sapiens, UniProt Q8NEB9): remaining binding read 89%.
Casein kinase I isoform delta (CSNK1D, Homo sapiens, UniProt P48730) — remaining binding: 74%.
For Ephrin type-B receptor 2 (EPHB2, Homo sapiens, UniProt P29323): remaining binding read 77%.
Mast/stem cell growth factor receptor Kit (KIT, Homo sapiens, UniProt P10721, D816H) — remaining binding: 100%.
It gave 98% for remaining binding (Cyclin-dependent kinase 4, with cyclin D3 (CDK4, Homo sapiens, UniProt P11802)).
It gave 100% for remaining binding (Serine/threonine-protein kinase TAO3 (TAOK3, Homo sapiens, UniProt Q9H2K8)).
It gave 87% for remaining binding (Receptor-type tyrosine-protein kinase FLT3 (FLT3, Homo sapiens, UniProt P36888, D835H)).

Block 4
Target: Casein kinase I isoform gamma-1 (CSNK1G1, Homo sapiens, UniProt Q9HCP0)
Chain of UniProt Q9HCP0 (whole entry, looked up): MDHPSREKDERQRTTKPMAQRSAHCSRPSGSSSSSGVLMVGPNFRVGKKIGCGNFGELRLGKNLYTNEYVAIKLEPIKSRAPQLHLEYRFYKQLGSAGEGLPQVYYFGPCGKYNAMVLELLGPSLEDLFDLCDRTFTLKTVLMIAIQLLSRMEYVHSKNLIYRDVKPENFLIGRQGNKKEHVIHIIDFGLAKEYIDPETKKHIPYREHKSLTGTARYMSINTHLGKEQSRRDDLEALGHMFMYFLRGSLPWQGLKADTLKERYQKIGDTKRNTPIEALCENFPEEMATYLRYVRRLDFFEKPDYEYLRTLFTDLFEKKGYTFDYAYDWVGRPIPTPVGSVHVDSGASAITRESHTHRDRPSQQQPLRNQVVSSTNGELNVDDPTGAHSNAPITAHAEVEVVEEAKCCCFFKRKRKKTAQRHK
Observed: enzyme activity
Mode: inhibitor
Concentration: 0.5 µM
Relative to: control
With `O=C1Nc2ccc(Br)cc2/C1=C/c1cc2c([nH]1)CCCC2` the remaining activity was 102%.
`Oc1cccc(-c2nc(N3CCOCC3)c3oc4ncccc4c3n2)c1` gave a remaining activity of 89.4%.
With `O=C(c1cc2cc(O)ccc2[nH]1)c1cc2cc(O)ccc2[nH]1` the remaining activity was 93.1%.
For `O=C1Nc2ccccc2/C1=C\c1c(Cl)[nH]c2ccccc12`, the remaining activity was 99.3%.
For `COc1ccc2c(c1)c(C1=C(c3c[nH]c4ccccc34)C(=O)NC1=O)cn2CCCN(C)C`, the remaining activity was 84.1%.
The remaining activity of `CCCNC(=O)Nc1ccc(Oc2ncnc3cc(OC)c(OC)cc23)cc1Cl` is reported as 97.1%.

Repeated from above (block 1):
`ACGTAGGA` has an E-score of -0.159.
`CACATCCA` has an E-score of -0.094.
